Measured values collected from several papers.
Protocols differ between the studies behind these lines. ± marks the error that the study gave.

`C[C@H](c1ccccc1)N1C(=O)C2=Nc3ccc(Cl)cc3CN2C1=S` gave an IC50 of 2.4 ± 0.5 µM (healthy human PBMCs; cell viability, resazurin).
The IC50 of `O=C(NCc1cc(F)cc(F)c1)[C@@]1(O)CCN(c2ccc3[nH]ccc3c2)C1=O` is reported as > 10 µM (CXF280 colon tumour; colony formation, soft agar clonogenic).
`Oc1ccc(C#Cc2cccc3c2C(c2ccc(O)cc2)(c2ccc(O)cc2)c2cc(O)ccc2-3)cc1` has an IC50 of 10.1 µM (MGC-803; cell growth or viability, MTT; 48 h).
The IC50 of `Cc1ccc([N+](=O)[O-])cc1S(=O)(=O)N(C)/N=C/c1cnc2ccc(Br)cn12` is reported as 0.805 µM (TK-10; MTS; NCI60 panel).
`Cn1ncc(-c2ccc3c(=O)[nH]nc(CN)c3c2)c1-c1c(F)c(Cl)cc(OC2CC2)c1C#N` has an IC50 of 0.065 µM (Lu-99/Luc; cell viability, inhibitor, luciferase; 120 h).
For `Cn1cc(-c2n[nH]c3ccc(NC(=O)c4cccc(NC(=O)Nc5ccc(OC(F)(F)F)cc5)c4)cc23)cn1`, the IC50 was > 50 µM (KM12; cell growth or viability, ATP luminescence; 72 h).
For `CNS(=O)(=O)Nc1nccc(Cc2c(C)c3ccc(Oc4ncccc4F)cc3oc2=O)c1F`, the IC50 was 0.00283 µM (Calu-3; cell viability; 7 days).
The IC50 of `O=C(Nc1ccc(F)c(C(=O)Nc2ccc3[nH]nc(-c4ccccc4)c3c2)c1)Nc1cc(C(F)(F)F)ccc1F` is reported as > 50 µM (KM12; cell growth or viability, ATP luminescence; 72 h).
With `COC[C@H](C)N1C(=O)C2=Nc3ccccc3CN2C1=S` the IC50 was > 100 µM (healthy human PBMCs; cell viability, resazurin).
`Cc1cnc2nc1Nc1cc(ccc1F)COC/C=C/COCc1cc(ccc1OCCN1CCCC1)N2` has an IC50 of 3.72 µM (SET-2; cell growth or viability, CCK-8).
`CCCC(CCC)C(=O)[O][Pt]([NH2])([NH2])([Cl])([Cl])[O]C(C)=O` has an IC50 of 1.75 ± 0.7 µM (C13* cisplatin-resistant ovarian; cytotoxicity, MTT; 72 h).
The IC50 of `CCC(=CCc1c(O)cc2c(c1O)C(=O)CC(c1cc(OC)ccc1O)O2)CC` (centres unmarked) is reported as > 120 µM (normal pig cell line; cytotoxicity, MTT; 48 h).
For `CCOc1cncc(-c2ccc(NC(=O)C3(c4ccnc(NS(=O)(=O)C5CC5)n4)CCOCC3)nc2)n1`, the IC50 was 0.141 µM (SW756; cell growth or viability, ATP luminescence; 72 h).
The IC50 of `CC(C)c1ccc(N(C)c2ccc3c(c2)OCC[C@H]3CNc2cnccc2C(=O)O)cc1` is reported as 0.0258 µM (LUDLU-1; cell viability, CellTiter-Glo; 7 days).
With `Cc1cc(Cl)cc(-c2ccnc3cc(CN4C(=O)C5C(C4=O)C5(C)C)sc23)c1C[C@@H]1CNCCO1` (some centres unmarked) the IC50 was 0.488 µM (CHP-212; cell viability, SRB; mean of replicates).
With `C=CC(=O)N1CCCC(n2c(=O)c3ncccc3n(Cc3ccc(Oc4ccccc4)cc3)c2=O)C1` (centres unmarked) the IC50 was 2.5 µM (JVM-2; cell growth or viability, MTT; 72 h).
`CCC(=CCc1c(O)cc2c(c1O)C(=O)CC(c1cc(O)cc(OC)c1)O2)CC` (centres unmarked) has an IC50 of 18.1 ± 2.7 µM (normal pig cell line; cytotoxicity, MTT; 48 h).

A few entries again:
With `COC[C@H](C)N1C(=O)C2=Nc3ccccc3CN2C1=S` the IC50 was > 100 µM (healthy human PBMCs; cell viability, resazurin).
`CCC(=CCc1c(O)cc2c(c1O)C(=O)CC(c1cc(O)cc(OC)c1)O2)CC` (centres unmarked) has an IC50 of 18.1 ± 2.7 µM (normal pig cell line; cytotoxicity, MTT; 48 h).
